Assay results from different studies.
Lines come from different studies, so protocols differ. Numbers after ± are the reported error.
Sequence of UniProt P41143 (whole entry, unmodified, looked up): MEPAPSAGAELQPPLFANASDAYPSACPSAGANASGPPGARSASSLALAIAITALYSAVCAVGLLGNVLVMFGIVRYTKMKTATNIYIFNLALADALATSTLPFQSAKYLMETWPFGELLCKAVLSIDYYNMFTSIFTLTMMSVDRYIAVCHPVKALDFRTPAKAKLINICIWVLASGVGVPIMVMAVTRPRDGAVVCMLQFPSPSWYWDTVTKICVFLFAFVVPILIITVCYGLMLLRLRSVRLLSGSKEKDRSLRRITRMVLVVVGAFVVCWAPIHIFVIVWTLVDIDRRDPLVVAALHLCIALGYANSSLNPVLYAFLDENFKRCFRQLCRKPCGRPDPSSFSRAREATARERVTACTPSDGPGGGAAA
Sequence of UniProt P00811 (whole entry, looked up): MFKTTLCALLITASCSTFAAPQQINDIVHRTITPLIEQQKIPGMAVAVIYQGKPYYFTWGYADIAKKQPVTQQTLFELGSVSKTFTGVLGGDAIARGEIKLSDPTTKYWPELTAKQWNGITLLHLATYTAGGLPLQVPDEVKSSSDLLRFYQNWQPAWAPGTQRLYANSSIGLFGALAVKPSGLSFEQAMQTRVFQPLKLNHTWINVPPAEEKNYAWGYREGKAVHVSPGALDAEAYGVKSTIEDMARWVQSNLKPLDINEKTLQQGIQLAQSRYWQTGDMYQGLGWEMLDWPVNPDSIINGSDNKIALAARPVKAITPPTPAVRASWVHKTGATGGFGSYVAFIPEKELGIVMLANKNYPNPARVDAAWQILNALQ
Sequence of UniProt P50552 (whole entry, looked up): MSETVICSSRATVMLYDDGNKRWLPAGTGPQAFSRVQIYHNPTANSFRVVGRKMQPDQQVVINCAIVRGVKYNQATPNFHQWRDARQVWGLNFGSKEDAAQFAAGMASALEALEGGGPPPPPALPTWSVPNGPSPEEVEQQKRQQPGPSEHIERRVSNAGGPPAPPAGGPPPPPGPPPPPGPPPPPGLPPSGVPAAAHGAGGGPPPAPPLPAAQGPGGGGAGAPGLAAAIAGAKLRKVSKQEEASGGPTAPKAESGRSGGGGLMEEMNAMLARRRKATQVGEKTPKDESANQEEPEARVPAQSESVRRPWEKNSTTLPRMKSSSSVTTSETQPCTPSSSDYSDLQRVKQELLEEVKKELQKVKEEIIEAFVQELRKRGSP
Sequence of UniProt P07949 (whole entry, looked up): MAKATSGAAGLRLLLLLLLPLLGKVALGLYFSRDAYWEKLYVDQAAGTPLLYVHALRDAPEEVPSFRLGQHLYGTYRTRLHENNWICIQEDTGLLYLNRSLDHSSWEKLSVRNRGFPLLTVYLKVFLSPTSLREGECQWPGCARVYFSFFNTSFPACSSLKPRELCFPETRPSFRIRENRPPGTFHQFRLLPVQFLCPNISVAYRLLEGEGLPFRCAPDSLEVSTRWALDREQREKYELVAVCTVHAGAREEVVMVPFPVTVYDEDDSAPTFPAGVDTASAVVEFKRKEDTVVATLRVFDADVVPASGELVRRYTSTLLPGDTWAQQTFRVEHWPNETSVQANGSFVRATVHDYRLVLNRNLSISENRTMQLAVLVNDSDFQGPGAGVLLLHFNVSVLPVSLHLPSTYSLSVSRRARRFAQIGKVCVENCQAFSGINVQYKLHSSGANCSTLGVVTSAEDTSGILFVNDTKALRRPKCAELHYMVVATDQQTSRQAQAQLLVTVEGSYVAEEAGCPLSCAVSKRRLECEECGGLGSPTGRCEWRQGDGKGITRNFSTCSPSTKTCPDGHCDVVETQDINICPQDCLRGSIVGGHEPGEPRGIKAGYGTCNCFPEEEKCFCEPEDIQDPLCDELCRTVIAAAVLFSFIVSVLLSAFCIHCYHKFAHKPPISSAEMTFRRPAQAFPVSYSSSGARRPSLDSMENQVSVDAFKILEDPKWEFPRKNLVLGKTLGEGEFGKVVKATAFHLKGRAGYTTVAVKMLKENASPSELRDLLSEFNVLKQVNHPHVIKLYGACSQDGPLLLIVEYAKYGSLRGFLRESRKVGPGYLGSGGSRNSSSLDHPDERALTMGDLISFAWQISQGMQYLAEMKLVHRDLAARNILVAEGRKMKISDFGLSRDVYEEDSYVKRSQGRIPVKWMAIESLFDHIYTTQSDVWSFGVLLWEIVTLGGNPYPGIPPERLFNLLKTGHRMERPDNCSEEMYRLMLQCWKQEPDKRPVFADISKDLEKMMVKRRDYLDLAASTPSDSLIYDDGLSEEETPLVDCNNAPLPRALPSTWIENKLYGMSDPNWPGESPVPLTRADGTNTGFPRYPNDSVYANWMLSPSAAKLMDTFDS
Sequence of UniProt O43639 (whole entry, looked up): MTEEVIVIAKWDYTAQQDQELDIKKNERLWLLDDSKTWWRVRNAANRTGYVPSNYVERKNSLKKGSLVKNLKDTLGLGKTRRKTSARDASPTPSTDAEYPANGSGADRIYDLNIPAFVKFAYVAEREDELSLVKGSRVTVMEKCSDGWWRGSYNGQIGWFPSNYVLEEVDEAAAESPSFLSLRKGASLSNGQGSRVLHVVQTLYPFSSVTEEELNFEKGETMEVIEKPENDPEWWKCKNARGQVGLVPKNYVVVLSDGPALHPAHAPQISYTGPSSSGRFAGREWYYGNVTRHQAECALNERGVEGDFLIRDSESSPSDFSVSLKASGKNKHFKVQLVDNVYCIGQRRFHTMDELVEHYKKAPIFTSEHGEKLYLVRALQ
Sequence of UniProt P09619 (whole entry, looked up): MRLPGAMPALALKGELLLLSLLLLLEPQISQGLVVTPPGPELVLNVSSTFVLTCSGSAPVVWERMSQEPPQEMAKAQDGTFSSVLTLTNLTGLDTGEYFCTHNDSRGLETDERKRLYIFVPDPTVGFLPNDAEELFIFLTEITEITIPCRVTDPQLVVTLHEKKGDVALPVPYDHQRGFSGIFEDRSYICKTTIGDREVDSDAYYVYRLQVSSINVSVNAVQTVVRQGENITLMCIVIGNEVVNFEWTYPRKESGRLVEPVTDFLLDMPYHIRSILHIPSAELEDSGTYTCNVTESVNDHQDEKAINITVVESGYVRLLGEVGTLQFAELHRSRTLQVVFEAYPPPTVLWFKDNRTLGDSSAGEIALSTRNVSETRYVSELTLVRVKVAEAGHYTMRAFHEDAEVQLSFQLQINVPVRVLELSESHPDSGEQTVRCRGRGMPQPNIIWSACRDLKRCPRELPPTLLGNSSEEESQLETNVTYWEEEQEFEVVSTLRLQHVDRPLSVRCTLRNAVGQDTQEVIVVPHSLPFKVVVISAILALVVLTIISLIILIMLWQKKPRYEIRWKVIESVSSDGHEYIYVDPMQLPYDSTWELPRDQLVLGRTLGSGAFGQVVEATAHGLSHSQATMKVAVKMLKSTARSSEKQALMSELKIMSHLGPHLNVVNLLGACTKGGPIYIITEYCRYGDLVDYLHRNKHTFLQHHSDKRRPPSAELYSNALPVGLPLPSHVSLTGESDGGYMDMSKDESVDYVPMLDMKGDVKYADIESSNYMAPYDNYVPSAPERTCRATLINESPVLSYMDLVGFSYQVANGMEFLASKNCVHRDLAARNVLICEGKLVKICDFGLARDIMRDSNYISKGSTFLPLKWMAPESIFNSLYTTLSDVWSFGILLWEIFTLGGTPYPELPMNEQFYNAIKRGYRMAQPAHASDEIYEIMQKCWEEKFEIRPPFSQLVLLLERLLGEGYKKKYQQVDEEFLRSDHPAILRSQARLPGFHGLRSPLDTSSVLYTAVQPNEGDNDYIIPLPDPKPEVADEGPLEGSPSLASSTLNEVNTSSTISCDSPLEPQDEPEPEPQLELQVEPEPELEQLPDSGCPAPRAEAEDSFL
Sequence of UniProt P08510 (whole entry, unmodified, looked up): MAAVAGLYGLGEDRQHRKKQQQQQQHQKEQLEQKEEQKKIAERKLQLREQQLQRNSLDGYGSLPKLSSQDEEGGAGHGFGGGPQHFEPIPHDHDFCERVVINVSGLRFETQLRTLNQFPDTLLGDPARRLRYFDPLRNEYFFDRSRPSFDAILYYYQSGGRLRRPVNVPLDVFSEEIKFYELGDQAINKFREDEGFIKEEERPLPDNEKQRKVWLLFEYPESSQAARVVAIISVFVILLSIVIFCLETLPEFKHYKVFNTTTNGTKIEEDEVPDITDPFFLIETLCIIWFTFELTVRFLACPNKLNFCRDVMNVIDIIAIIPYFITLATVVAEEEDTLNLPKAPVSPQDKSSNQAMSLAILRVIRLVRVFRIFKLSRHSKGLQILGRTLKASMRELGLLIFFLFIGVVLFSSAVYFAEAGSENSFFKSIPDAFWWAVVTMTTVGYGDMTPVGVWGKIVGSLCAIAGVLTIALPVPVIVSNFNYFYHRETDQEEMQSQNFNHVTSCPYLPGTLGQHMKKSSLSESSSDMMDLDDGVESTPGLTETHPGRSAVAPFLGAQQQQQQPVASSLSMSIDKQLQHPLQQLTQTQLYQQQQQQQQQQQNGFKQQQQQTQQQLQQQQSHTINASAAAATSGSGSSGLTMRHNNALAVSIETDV

SMILES	target or system	assay	system	setting	how to read	quantity	value
CC(C)C[C@H](NC(=O)[C@H](CCCNC(=N)N)NC(=O)[C@H](CO)NC(=O)[C@H](CC(N)=O)NC(=O)c1ccc2c(c1)C(=O)OC21c2ccc(N(C)C)cc2Oc2cc(N(C)C)ccc21)C(=O)NCC(=O)N[C@@H](CC(N)=O)C(=O)NCC(=O)N[C@H](C(=O)N[C@@H](CC(C)C)C(=O)N[C@@H](Cc1ccc(OP(=O)(O)O)cc1)C(=O)N[C@@H](C)C(=O)N[C@@H](CO)C(=O)N[C@H](C(=O)N[C@@H](CC(N)=O)C(=O)N1CCC[C@H]1C(=O)N[C@@H](CCC(=O)O)C(=O)N[C@@H](Cc1ccc(O)cc1)C(=O)N[C@@H](CC(=O)O)C(=O)O)C(C)C)C(C)C	Cytoplasmic protein NCK2, SH2 domain (NCK2, Homo sapiens, UniProt O43639)	binding				Kd	0.349 µM
CC(=O)N[C@@H](CO)C(=O)N[C@@H](Cc1ccccc1)C(=O)N[C@@H](CCC(=O)O)C(=O)N[C@@H](Cc1ccccc1Cl)C(=O)N1CCC[C@H]1C(=O)N1CCC[C@H]1C(=O)N[C@@H]1C(=O)N2[C@@H](C=C[C@H]1C)CC[C@H]2C(=O)N[C@H](C(=O)N[C@@H](CCC(=O)O)C(=O)N[C@@H](CC(=O)O)C(=O)N[C@@H](CCC(=O)O)C(=O)N[C@@H](CC(C)C)C(N)=O)[C@@H](C)O	Vasodilator-stimulated phosphoprotein (VASP, Homo sapiens, UniProt P50552)	binding, fluorescence				Kd	1.5 µM
CC[C@H](C)[C@H](NC(=O)[C@H](CO)NC(=O)[C@H](Cc1ccc(O)cc1)NC(=O)[C@H](Cc1ccc(O)cc1)NC(=O)[C@H](CC(N)=O)NC(=O)CNC(=O)[C@H](CO)NC(=O)[C@H](Cc1ccc(O)cc1)NC(=O)[C@H](CO)NC(=O)[C@H](CO)NC(=O)[C@H](CC(N)=O)NC(=O)COCCOCCNC(=O)CN1CCN(CC(=O)O)CCN(CC(=O)O)CCN(CC(=O)O)CC1)C(=O)N[C@@H](CC(C)C)C(N)=O [copper-64 labelled]		dynamic PET	tamoxifen-induced PDAC mouse model, pancreas	8.5 min, CLDN4-expressing tumours		maximum pancreas uptake	18.1 %IA/cc
CC1(O)c2ccccc2-c2ccccc2C1(C)O (stereo not drawn)	Beta-lactamase (ampC, Escherichia coli K-12, UniProt P00811)					Kd	1400 µM
CCN(CC)C(=O)c1ccc(C(c2cccc(O)c2)N2CC(C)N(Cc3ccccc3)CC2C)cc1 (stereo not drawn)	Delta-type opioid receptor (OPRD1, Homo sapiens, UniProt P41143, D95G)					Ki	0.00092 ± 0.00027 µM
O=C1C2CCCC(C(C(O)CO)CN1Cc1ccccn1)N2S(=O)(=Nc1ccccc1)c1cc(Cl)cc(Cl)c1 (stereo not drawn)	uncharacterized protein, residues 23-253 (Pseudomonas aeruginosa, UniProt Q9HYX8)	binding, competitive fluorescence polarization		30 min, protein 40 nM, added: fluorescent tracer 1 nM		Kd	> 40 µM
CC(C)(C)C(=O)OCOP(=O)(OCOC(=O)C(C)(C)C)C1CCCN(O)C1=O (stereo not drawn)	NCI-H522					GI50	0.308 µM
C=CC[C@H]1OC(=O)CCNC(=O)[C@H](C)N(C)C(=O)[C@H]([C@@H](C)CC)N(C)C(=O)[C@H]([C@@H](C)CC)NC(=O)[C@@H]2[C@@H](C)CCN2C1=O	Platelet-derived growth factor receptor beta, extracellular domain (PDGFRB, Homo sapiens, UniProt P09619)	SPR		22 °C, extracellular domain immobilised		Kd	7.7 µM
Cn1c2cccc(=O)c-2nc2ccccc21	TetR-family regulator NalD (Pseudomonas aeruginosa, UniProt Q9HY46)	binding, microscale thermophoresis		wild-type protein		Kd	31.7 µM
O=C1NC2(CC2)COc2ncc(F)cc2[C@H]2COCCN2c2ccn3ncc1c3n2			Sprague-Dawley rat, female, serum	oral, 5 mg/kg/day, 4 weeks daily, end of recovery period		pancreatic amylase activity	1550 ± 116 U/L
CC[C@H](C)[C@H](NC(=O)[C@H](CCCCNC(=O)CN(CCNC(=O)CN(CCNC(=O)CN(CCNC(=O)CN(CCNC(=O)[C@H](CCCNC(=N)N)NC(C)=O)C(=O)Cn1ccc(N)nc1=O)C(=O)Cn1cnc2c(=O)[nH]c(N)nc21)C(=O)Cn1cnc2c(=O)[nH]c(N)nc21)C(=O)Cn1ccc(N)nc1=O)NC(=O)[C@H](C)NC(=O)[C@H](CCCNC(=N)N)NC(=O)[C@H](CCCCN)NC(=O)[C@H](CCC(N)=O)NC(=O)[C@H](CCC(N)=O)NC(=O)[C@H](CC(N)=O)NC(=O)[C@@H](NC(=O)[C@H](CC(C)C)NC(=O)[C@H](CC(N)=O)NC(=O)[C@@H]1CCCN1C(=O)[C@H](CC(=O)O)NC(=O)[C@H](CC(C)C)NC(=O)[C@H](C)NC(=O)[C@H](CS)NC(=O)[C@H](CCCC(=O)NCCN(CC(=O)NCCN(CC(=O)NCCN(CC(=O)NCCN(CC(N)=O)C(=O)Cn1cnc2c(=O)[nH]c(N)nc21)C(=O)Cn1ccc(N)nc1=O)C(=O)Cn1ccc(N)nc1=O)C(=O)Cn1cnc2c(=O)[nH]c(N)nc21)NC(=O)[C@H](Cc1c[nH]c2ccccc12)NC(=O)[C@H](Cc1ccc(O)cc1)NC(=O)[C@H](CCCNC(=N)N)NC(=O)[C@H](CC(N)=O)NC(=O)[C@H](CCCNC(=N)N)NC(=O)[C@H](CC1CCCCC1)NC(=O)[C@H](CCC(=O)O)NC(=O)[C@H](CCCCN)NC(C)=O)[C@@H](C)O)C(=O)N[C@@H](CCCNC(=N)N)C(=O)N[C@@H](CO)C(=O)N[C@H](C(=O)N[C@@H](Cc1ccc(O)cc1)C(=O)N[C@@H](CCC(=O)O)C(=O)N[C@@H](CCC(=O)O)C(=O)NCC(=O)N[C@@H](CCC(=O)O)C(N)=O)[C@@H](C)CC	Receptor tyrosine-protein kinase erbB-2 (ERBB2, Homo sapiens, UniProt P04626)	binding, SPR				Kd	0.0051 µM
COc1ccccc1-c1n[nH]c2nc(NC3CCN(C(=O)Cc4ccc(F)cc4F)CC3)ncc12		bead binding, competition bead pull-down, measured: LMJF.34.3980	Leishmania donovani axenic amastigote extract	10 µM	relative to: vehicle	relative abundance	1.28
CSCC[C@@H](N)C(=O)N[C@H](C)C(=O)N[C@H](C)C(=O)N[C@@H](C(=O)N[C@H](C)C(=O)NCC(=O)N[C@H](CC(C)C)C(=O)N[C@H](Cc1ccc(O)cc1)C(=O)NCC(=O)N[C@H](CC(C)C)C(=O)NCC(=O)N[C@H](CCC(=O)O)C(=O)N[C@H](CC(=O)O)C(=O)N[C@H](CCCNC(=N)N)C(=O)N[C@H](CCC(N)=O)C(=O)N[C@H](Cc1c[nH]cn1)C(=O)N[C@H](CCCNC(=N)N)C(=O)N[C@H](CCCCN)C(=O)N[C@H](CCCCN)C(=O)N[C@H](CCC(N)=O)C(N)=O)C(C)C	Sh, DEL6-46 (Drosophila melanogaster, UniProt P08510)	ion current, blocker, inside-out patch clamp		+90 mV		Kd	3.5 µM
O=C(N[C@@H]1c2ccccc2C[C@H]1N1CCCC1)c1ccc(-c2ccnc3[nH]ccc23)nc1	Proto-oncogene tyrosine-protein kinase receptor Ret (RET, Homo sapiens, UniProt P07949)	binding, competition with immobilised ligand				Kd	0.315 µM
CC[C@H](C)[C@H](NC(=O)[C@H](CCC(=O)O)NC(=O)[C@H](CCCNC(=N)N)NC(=O)[C@H](C)NC(=O)[C@H](C)NC(=O)[C@H](CCC(N)=O)NC(=O)[C@H](CCC(=O)O)NC(=O)[C@H](CCC(=O)O)NC(C)=O)C(=O)NCC(=O)N[C@@H](C)C(=O)N[C@@H](CCC(N)=O)C(=O)N[C@@H](CC(C)C)C(=O)N[C@@H](CCCNC(=N)N)C(=O)N[C@@H](CCCNC(=N)N)C(=O)N[C@@H](CCSC)C(=O)N[C@@H](C)C(=O)N[C@@H](CC(=O)O)C(=O)N[C@@H](CC(=O)O)C(=O)N[C@@H](CC(C)C)C(=O)N[C@@H](CC(N)=O)C(=O)N[C@@H](C)C(=O)N[C@@H](CCC(N)=O)C(=O)N[C@@H](Cc1ccc(O)cc1)C(=O)N[C@@H](CCC(=O)O)C(=O)N[C@@H](CCCNC(=N)N)C(N)=O	BFL-1 ΔC human	binding, ITC				Kd	0.005 ± 0.003 µM
